Measured values pooled from the literature.
Each line is one published result; not all experiments were run side by side. Values joined by “and” are separate records of one study, mostly repeats; a detail may differ. ± marks the error that the study gave. In brackets after ≈: the same amount, converted by molar mass.
UniProt P11388, sequence (whole entry, looked up): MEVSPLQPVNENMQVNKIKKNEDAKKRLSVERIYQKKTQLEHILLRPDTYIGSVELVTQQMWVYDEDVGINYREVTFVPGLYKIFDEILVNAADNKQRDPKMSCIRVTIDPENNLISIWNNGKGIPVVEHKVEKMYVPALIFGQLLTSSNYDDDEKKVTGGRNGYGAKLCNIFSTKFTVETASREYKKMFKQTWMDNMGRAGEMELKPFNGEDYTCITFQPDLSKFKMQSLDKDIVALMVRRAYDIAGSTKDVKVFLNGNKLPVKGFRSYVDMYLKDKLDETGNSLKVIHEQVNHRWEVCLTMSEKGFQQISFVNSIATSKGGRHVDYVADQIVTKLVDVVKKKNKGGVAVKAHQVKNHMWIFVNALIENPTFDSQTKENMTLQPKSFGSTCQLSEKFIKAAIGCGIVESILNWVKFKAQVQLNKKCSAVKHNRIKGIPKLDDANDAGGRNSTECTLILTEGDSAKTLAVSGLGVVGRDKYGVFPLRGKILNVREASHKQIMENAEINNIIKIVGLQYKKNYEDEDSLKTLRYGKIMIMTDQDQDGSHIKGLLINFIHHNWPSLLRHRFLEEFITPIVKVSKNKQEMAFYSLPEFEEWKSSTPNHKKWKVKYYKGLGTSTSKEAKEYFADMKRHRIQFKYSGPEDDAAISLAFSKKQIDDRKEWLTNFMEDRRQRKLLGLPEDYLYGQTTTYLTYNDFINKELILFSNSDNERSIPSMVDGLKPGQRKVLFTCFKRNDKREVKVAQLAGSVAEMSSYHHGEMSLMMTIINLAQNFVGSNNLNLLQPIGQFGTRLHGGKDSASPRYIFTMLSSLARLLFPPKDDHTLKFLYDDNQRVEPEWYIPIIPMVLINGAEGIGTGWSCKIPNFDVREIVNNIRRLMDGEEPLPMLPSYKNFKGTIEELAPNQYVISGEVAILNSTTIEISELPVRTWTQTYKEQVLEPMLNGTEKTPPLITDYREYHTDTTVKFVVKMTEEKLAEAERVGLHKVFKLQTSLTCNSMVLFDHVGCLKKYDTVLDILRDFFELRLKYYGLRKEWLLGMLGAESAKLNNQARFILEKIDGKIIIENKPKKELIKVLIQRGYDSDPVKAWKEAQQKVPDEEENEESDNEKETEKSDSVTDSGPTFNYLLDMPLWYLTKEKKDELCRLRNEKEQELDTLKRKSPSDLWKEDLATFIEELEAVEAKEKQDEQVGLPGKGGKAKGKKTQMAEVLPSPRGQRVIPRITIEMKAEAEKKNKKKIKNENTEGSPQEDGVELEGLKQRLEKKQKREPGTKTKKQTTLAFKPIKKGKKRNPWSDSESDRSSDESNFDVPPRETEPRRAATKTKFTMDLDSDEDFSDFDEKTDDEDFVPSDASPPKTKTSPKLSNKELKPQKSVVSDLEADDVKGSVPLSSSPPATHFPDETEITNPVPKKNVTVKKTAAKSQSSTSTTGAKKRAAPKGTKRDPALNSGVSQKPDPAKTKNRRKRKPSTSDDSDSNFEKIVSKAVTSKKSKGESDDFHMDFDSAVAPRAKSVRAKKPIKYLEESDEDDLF

For `CCn1c(=O)c(-c2cc(NC(=O)Nc3ccccc3)c(F)cc2Br)cc2cnc(NC)cc21`, “patients with grade 3+ TEAE” read 0% (item: injury and poisoning; mild hepatic impairment; 50 mg single dose).
For `[H]/N=C(/N)N/C(=N/[H])NCCc1ccccc1`, the CC50 was 15 ± 5.2 µM (primary human hepatocytes; spare respiratory capacity, Seahorse OCR; 4 h).
For `COC(=O)Nc1c(N)nc(-c2nn(Cc3ccccc3F)c3ncc(F)cc23)nc1N`, the Cmax was 268 ng/mL (human, male, plasma; 10 mg, geometric mean, with: digoxin).
`CC(C)(C(=O)N1CCOc2c(C#N)cncc2C1)C(F)F`: “subjects with adverse event” 0% (item: injury, poisoning, procedural complications; human; oral, 10 mg once daily, 14 days, multiple ascending dose).
`COC(=O)Nc1c(N)nc(-c2nn(Cc3ccccc3F)c3ncc(F)cc23)nc1N` gave an AUC ratio of 0.993 (healthy men; oral, dose not given, multiple dose, with: sildenafil 100 mg; relative to: with over without sildenafil).
For `N#CCC1CCN(c2nc(Nc3ccc(N4CCC(O)CC4)cc3)c3c(=O)[nH]ncc3n2)CC1`, “serum level change” read -1.02 (Olink multiplex, item: CDCP1; human, serum; 20 mg, day 29, unit not given; relative to: placebo).
Under “relative specific activity”, `[Mg+2]` is recorded as 1 (uncharacterized protein (Bacteroides thetaiotaomicron, UniProt Q8A4G9); phosphatase activity, activator, phosphate release; 5 mM, EDTA-treated enzyme, with: substrate 25 mM; relative to: activity with this ion).
With `COc1cc([C@@H]2c3cc4c(cc3[C@@H](O[C@@H]3O[C@@H]5CO[C@@H](C)O[C@H]5[C@H](O)[C@H]3O)[C@H]3COC(=O)[C@H]23)OCO4)cc(OC)c1O` the relaxed DNA was 77.5% and 100% and 65.1% and 99.5% (DNA topoisomerase 2-alpha (TOP2A, Homo sapiens, UniProt P11388); DNA relaxation; 10 µM, replicate 2).
`COc1ccc([C@@H](O)c2cc(-c3ncnc4cc(N5CCOCC5)ccc34)c(F)cc2Cl)nn1`: “injury poisoning procedural TEAE” 17% (locally advanced rectal cancer patients; 250 mg, with: capecitabine and radiotherapy).
Under “patients with adverse event”, `O=C(Nc1nc2cccc(-c3ccc(CN4CCS(=O)(=O)CC4)cc3)n2n1)C1CC1` is recorded as 6.7% (item: injury or procedural complication; rheumatoid arthritis patients; oral, 150 mg once daily, 4 weeks, any relatedness).
`CC1COc2ccccc2N1C(=O)C(Cl)Cl` (stereo not shown) has an intrinsic clearance of 1400 µL/min/mg (cytosolic glutathione S-transferase; substrate depletion; rhesus monkey, male, liver cytosol; 5 µM, pH 7.4, with: glutathione).
The MIC of `CO/N=C(\C(=O)N[C@@H]1C(=O)N2C(C(=O)O)=C(COC(C)=O)CS[C@H]12)c1csc(N)n1` is reported as 16 µg/mL (≈ 35.1 µM) (Stenotrophomonas maltophilia; broth microdilution; clinical isolate RKI-No 729/15).
Under “subjects with respiratory TEAEs”, `Fc1ccccc1Cc1nc(-c2nc(C(F)(F)F)n[nH]2)cn2ccnc12` is recorded as 7.1% (healthy human subjects, both sexes; oral, 10 mg, fasted).

For quick reference, copied from above:
For `[H]/N=C(/N)N/C(=N/[H])NCCc1ccccc1`, the CC50 was 15 ± 5.2 µM (primary human hepatocytes; spare respiratory capacity, Seahorse OCR; 4 h).
